Experimental data collected from several papers.
Parts stem from different laboratories: compare values within a part only.

Set 1 — method: RNA Bind-n-Seq; molecule type: RNA; medium: in vitro; tested at: 200 nM; notes: whole 134-nt RNA, ends assumed; added: 150 mM LiCl; relative to: input library; direction: higher = stronger binding; all molecules: 7-deaza-guanosine replaces G
Target: Fragile X messenger ribonucleoprotein 1, C-terminal low-complexity region (Fmr1, Mus musculus, UniProt P35922)
For `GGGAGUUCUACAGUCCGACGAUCACCAUGCAGGUGGGCAUCUUUGGGAAGUGGGGCAAAAAGGGGAUAGGGAGGGGGGUAACACUUUGGGAACAGGUGGUCCCAGGUCGUUUCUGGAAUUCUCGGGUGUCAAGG`, the log2 enrichment was 1.11.
`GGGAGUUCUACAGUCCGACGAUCCCUCAAGUCCUGUGCUACACAUCGUAUGUACCGAAUCGGAGGGAGGGGAGGGAAAGUAUUAUGUUACGCCGUUCGGAUCUGCACUUCCAGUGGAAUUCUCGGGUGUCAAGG` has a log2 enrichment of -0.869.
`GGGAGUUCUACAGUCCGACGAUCUCCUCAAGUCCUGUGCUACACAUCGUAUGUACCGAAUCGGUGGUGGGUGGGGAAAGUAUUAUGUUACGCCGUUCGGAUCUGCACUUCCAGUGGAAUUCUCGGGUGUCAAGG` has a log2 enrichment of 0.886.
The log2 enrichment of `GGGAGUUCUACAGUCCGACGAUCCAAGUCCUGUGCUACACAUCGUAUGUACCGAAUCGGAAAAAGGUUUUUGGAAAGGAAAGUAUUAUGUUACGCCGUUCGGAUCUGCACUUCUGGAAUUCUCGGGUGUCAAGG` is reported as -2.07.
The log2 enrichment of `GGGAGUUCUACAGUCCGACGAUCUAACUUUAGAGGAGGAUCUGAUGGAUAUGGCAGUGGACGUGGAUUUGCGGAUGGCUAUAAUGGGUAUGGAGGAGGACCUGGAGGUGGCAAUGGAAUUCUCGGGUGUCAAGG` is reported as 0.35.
`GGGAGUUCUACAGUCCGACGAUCACCAUGCAGGUCGGCAUCUUUGGGAAGUGGGGCAAGGGGGGGAUAGGGAGGGGGGUAACACUUUGGGAACAGGUGGUCCCAGGUCGUUUCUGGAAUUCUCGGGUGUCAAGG` has a log2 enrichment of 1.55.
With `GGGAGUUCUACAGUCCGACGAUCUGGGAGGUGGAUUUUGUUUAUUUUUUUAGAUCAUUUCCAGGGGUGGGAAUUUUUUUUUAAUAUGUGUCAUGAAUAAAGUUGUUUUUGAAAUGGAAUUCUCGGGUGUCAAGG` the log2 enrichment was -0.774.
The log2 enrichment of `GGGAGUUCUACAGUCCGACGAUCGCAGGAAGUAAAAACUAAUGGAAAUGCUUCGGAUAGUGGCAGGGGUGGGGGUUGCUAAGGAAAGGGUGGGAUGGGAGUGGGUAAAGAGUUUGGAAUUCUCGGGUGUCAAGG` is reported as 1.54.
The log2 enrichment of `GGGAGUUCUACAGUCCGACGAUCCAAGUCCUGUGCUACACAUCGUAUGUACCGAAUCGGUUUGGGGUUUGGUUUGGGGAAAGUAUUAUGUUACGCCGUUCGGAUCUGCACUUCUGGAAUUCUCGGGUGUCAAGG` is reported as -1.35.
For `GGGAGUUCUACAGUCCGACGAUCCCUGUGCUACACAUCGUAUGUACCGAAUCGGGGUUUUUGGGGAAAAAAAGGGGUUUGGGGAAAGUAUUAUGUUACGCCGUUCGGAUCUGCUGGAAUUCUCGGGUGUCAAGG`, the log2 enrichment was -2.13.
`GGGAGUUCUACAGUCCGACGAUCCUCAAGUCCUGUGCUACACAUCGUAUGUACCGAAUCGGAGGAGGUUUUUUUGGAAAGUAUUAUGUUACGCCGUUCGGAUCUGCACUUCCAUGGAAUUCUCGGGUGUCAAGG` gave a log2 enrichment of -0.86.

Set 2 — method: universal PBM; molecule type: double-stranded DNA, one strand shown; medium: in vitro; tested at: not given; direction: higher = stronger binding
Target: Sal-like protein 4, full length isoform B (SALL4, Homo sapiens, UniProt Q9UJQ4-2, residues 1-616)
Notes: 8-mer, flanks averaged, mean of replicates
`CAATGCGC` gave an E-score of -0.0475.
For `AACGGTCA`, the E-score was -0.0825.
`ATGACGAG` has an E-score of 0.0193.
The E-score of `AGGTTTGC` is reported as -0.0765.
For `CTAATAGC`, the E-score was 0.134.
`CGTTATCC` has an E-score of 0.114.
For `AGCCGTCA`, the E-score was -0.0276.
The E-score of `CTTTGTTA` is reported as 0.302.
`AACTAATA` has an E-score of 0.381.
The E-score of `CATCGCTA` is reported as 0.0621.
For `GCAATGGC`, the E-score was -0.139.
For `CTATTTTA`, the E-score was 0.306.
For `GTTCCGGA`, the E-score was -0.152.
With `CGCAGGAG` the E-score was -0.191.
With `GATGACCA` the E-score was -0.0247.
For `AGACCAAG`, the E-score was -0.142.
`GCAGCGGC` gave an E-score of -0.346.
For `AGTGACTC`, the E-score was -0.15.
The E-score of `CTGATCGA` is reported as -0.235.
The E-score of `ACCGCAGA` is reported as -0.166.
The E-score of `AACGCGGG` is reported as -0.317.
The E-score of `CCGGCCCC` is reported as -0.349.
For `CCACAAGC`, the E-score was -0.18.
For `GCCCGCTA`, the E-score was -0.208.
For `AGACGGCC`, the E-score was -0.319.

Set 3 — method: RNA Bind-n-Seq; molecule type: RNA; medium: in vitro; tested at: 365 nM; relative to: no-protein control; direction: higher = stronger binding
Target: RNA binding protein fox-1 homolog 2, RRM domain, GST-SBP tag (RBFOX2, Homo sapiens, UniProt O43251-10, residues 100-194)
Notes: natural RNA segment, single round, ends assumed
Target sequence (chain): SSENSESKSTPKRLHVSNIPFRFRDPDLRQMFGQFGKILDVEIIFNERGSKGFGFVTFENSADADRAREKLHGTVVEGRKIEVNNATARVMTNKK
For `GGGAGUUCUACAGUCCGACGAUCAAAACGUUGUAAGAAGGCAAUAUUAAUCUAGUCACCAUGUACGCACUCUGGAUGGAGGUUCUACAGAGCUGUUGAUUGGUCAACUACUUCUCUUACAUUGUUGACUCAUGUGGAAUUCUCGGGUGCCAA`, “RBNS enrichment (R)” read 0.432.
For `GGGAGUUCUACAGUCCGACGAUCAGUCAGCGCAGUUUAGCAGUUAAAAGUGUAUUUUUGUUUAAUCAAACAAUAAUAAAGAGAGAUUUGUGGAAAAAUCCAGUUACGGGUGGAGGGGAAUCGGUUCAUCAAUUUGGAAUUCUCGGGUGCCAA`, “RBNS enrichment (R)” read 0.62.
For `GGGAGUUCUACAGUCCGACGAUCGGUGGUGAUGCAACUGGGGGCUUACUCUGAGGAAACCUAGGAAAUCUCGGUGCACUAGGAAGUGAAUCCCGCAGGACAGCUGCACUCAGGGAUACGCCCAACACCAUGGCUGGAAUUCUCGGGUGCCAA`, “RBNS enrichment (R)” read 0.682.
`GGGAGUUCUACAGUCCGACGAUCAAAAGUUGUCUCUAGAGAAAAUACUAUUACAAUCUAAGCAUGAUUCUCUGUGGAGACUAAUUUUUUCCCCUUUUGCCAAAAGCAGUCCUUCCCAAAUUAACAAAGCAAACUGGAAUUCUCGGGUGCCAA` — result for “RBNS enrichment (R)”: 1.91.
`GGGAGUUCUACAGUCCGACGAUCCUGAGCUAGGGGAAGCUCCUGUCCCUGCAUCUGUGGGCUCUACCUCUGGGCCUGCCACCACGCCCCUGGCUAGUGCACCAAGACCUGCUGCUCCUGCCAGCAACCCACCAUGGAAUUCUCGGGUGCCAA`: “RBNS enrichment (R)” 2.66.
`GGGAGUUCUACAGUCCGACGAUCCUGGGCCUCCGCUCUUUAACUAUAUAAACAUUUAUCUGUAUAUCUAUGUCCCUGUCUGGGGGGCAGGAGGAAUCUGCCAAAGACCAACAGUCUUACUUUAUCUUACUAUAUGGAAUUCUCGGGUGCCAA` — result for “RBNS enrichment (R)”: 0.463.
Under “RBNS enrichment (R)”, `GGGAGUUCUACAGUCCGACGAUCAAAACAGCAGCAGUAUUUUCCUUUUCCUAGUGCUAAAAUCCCUUUCCCUAGAAAUUGGCUCACCUUGGGAAACCCAGGGAAAGAAUCAGCAGGUUCUCUGCCCUCCCUAGUGGAAUUCUCGGGUGCCAA` is recorded as 0.463.
`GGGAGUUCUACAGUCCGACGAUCCGUAGCCAGGUUCCCUCUGCUUUCCUCUGGGAUAUGGAAAGGGGGCCAAGAGGACUUUGGAUCUCUCCUCCAUACACACUACACUGGCCCUUCUCCCCAUCAAGCGCUCAUGGAAUUCUCGGGUGCCAA` — result for “RBNS enrichment (R)”: 0.662.
For `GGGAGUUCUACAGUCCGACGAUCCCCCAACCCCAGAUGGGCCCAGGCAGGGAGCAGCCCUGCCCAUGCCCACACUACAGGCCCGGAGCUUUGGGGCUGGGUACAUGUGCCAAGCCUCCCUCCCUGGGCUACAGUGGAAUUCUCGGGUGCCAA`, “RBNS enrichment (R)” read 0.174.

Set 4 — method: RNA Bind-n-Seq; molecule type: RNA; medium: in vitro; tested at: not given; relative to: input RNA pool; direction: higher = stronger binding
Target: RING finger protein unkempt homolog, zinc fingers 1-6, GST-SBP tag (UNK, Homo sapiens, UniProt Q9C0B0, residues 30-357)
Notes: RNA with constant flanks, human and mouse sites, ends assumed
Residues (chain): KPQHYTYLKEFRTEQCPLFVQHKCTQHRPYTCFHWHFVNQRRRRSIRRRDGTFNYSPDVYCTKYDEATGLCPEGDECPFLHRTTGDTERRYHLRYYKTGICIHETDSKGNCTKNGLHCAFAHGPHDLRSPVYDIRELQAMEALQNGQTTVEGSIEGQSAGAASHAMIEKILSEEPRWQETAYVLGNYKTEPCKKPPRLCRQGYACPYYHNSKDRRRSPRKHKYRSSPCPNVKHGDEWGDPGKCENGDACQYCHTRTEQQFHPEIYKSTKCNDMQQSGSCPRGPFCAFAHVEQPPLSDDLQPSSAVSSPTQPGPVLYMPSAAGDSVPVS
`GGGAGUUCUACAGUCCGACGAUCGGACAGUCUCAGCCCCCCCUCCAACAGAAUCAGACUUCAUCGCCUGAUUCGUCCAAUGAAAAUUCCCCUGCAACUCCUCCUGAUGAGCAAGGUCAAGGUGAUGCUCCUCCACAGAUUGAACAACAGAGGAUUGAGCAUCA` has a bound/input enrichment of 0.287 ratio.
`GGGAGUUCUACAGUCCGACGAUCAUAACAAUGCUGGUUCCUGGAGGAGAAGGACCUGAAGUGUGAAUGAGUUUCCUUGACUUACACUAGAUUUUGUUUUGGCUUAUAAUGACAAGAAAAUGGAAUUUUUUUUCCCACUUUCUACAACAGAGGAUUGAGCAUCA` gave a bound/input enrichment of 0.618 ratio.
With `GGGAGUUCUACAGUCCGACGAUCAGUGGAGAGUCCCUUUCAGCCAACAUCGAGUGGAAGCUGACAUUGUGGACCACCUGUGGUCUCUCCAAGGAUGGCUACGGAGGCUGGCAGGACUUGGUGUGCCUGGGAGGUGCUCAGGCCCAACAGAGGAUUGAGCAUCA` the bound/input enrichment was 0.0616 ratio.
With `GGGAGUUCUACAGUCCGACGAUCGACUCUGAUAUGGAAGAGGAGGCAGAUGAUGGCUGUAAGGUGGCACCUGAUUUAAUCAGUCAGCAAGAUACCUGUGUAGAUUCUACUUCAUCCCUGAGAGAGAACAAACAACCAGAAGUUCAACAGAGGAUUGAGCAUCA` the bound/input enrichment was 0.112 ratio.
`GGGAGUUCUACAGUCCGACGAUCUAUGUCGAGUUUCUCUAGGGCGCCCCAGCAAUGGGCCACUUUUGCUAGAAUAUGGUAUCUCUUAGAUGGGAAAAUGCAGCCACCUGGCAAACUUGCUGCUAUGGCAUCUAUAAGACUUCACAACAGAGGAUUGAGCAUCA` has a bound/input enrichment of 0.708 ratio.
With `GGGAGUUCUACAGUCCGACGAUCACUACCCACAAAGAAGAAAAGAGUUUACUAGAACUAGAAGUUGAUUUGGAUAACUUGGAAUUAGAGGAUAUUGACACAACAGACAUUAAUCUGGAUGAAGAUAUUCUGGAUGAUUAAAGUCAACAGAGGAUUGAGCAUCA` the bound/input enrichment was 0.735 ratio.
With `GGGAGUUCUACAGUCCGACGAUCCAACUGGUGCAGCGCUGCCAGCAGGCAUACAUGCAGUACAUCCACCACCGCUUGAUUCACCUGACUCCUGCGGACUACGACGACUUUGUGAAUGCGAUCCGGAGUGCCCGCAGCGCCUUCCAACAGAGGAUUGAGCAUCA` the bound/input enrichment was 0.0673 ratio.
With `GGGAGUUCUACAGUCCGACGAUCCUAGAGGAUUACUACCAAAGUGGAAGAAUGCUUUUGCGAAUGUCUCAAGCUCUGGGUCGAAUAGUUUUGGCUGGGCGUGAAAUGACUAGAUUGGCCGGUUUUACUGCUCGGAUUACAGAACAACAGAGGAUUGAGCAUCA` the bound/input enrichment was 0.197 ratio.
The bound/input enrichment of `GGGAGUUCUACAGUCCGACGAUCCUAAAGGCAGAAAACCUGCUCCUGGAUGCUGAUAUGAACAUCAAGAUUGCAGACUUUGGCUUUAGCAACGAAUUCACCUUUGGGAACAAGCUGGAUACUUUCUGUGGCAGUCCUCCUUAUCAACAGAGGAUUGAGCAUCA` is reported as 0.164 ratio.
`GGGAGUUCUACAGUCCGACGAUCUCUCUACGCUGCGGGGAUGCAGCCCGCACCCUGGGGCCCCGGGUAUUUGGGAGAUAUUUUUGCAGCCCAGUCAGACCGUUAAGCUCCUUGCCAGAUAAAAAAAAGGAACUCCUACAGAAUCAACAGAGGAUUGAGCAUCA` has a bound/input enrichment of 0.352 ratio.
For `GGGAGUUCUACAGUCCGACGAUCACCUUCCUUGUAUUUUCCAAGGCUGAACUUGGUGCUCUUCCUGAUGAUUUCAUUGACAGUUUAGAAAAGACAGAUGAUGACAAGUAUAAAAUUACCUUAAAAUAUCCACACUAUUUCCCUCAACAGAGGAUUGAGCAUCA`, the bound/input enrichment was 1.04 ratio.
